Assay results pooled from the literature.
Protocols differ between the studies behind these lines. Several values in a cell are separate wells, animals, samples, runs or records. ± gives the spread as reported.
rep main protease: Replicase polyprotein 1ab, main protease (rep, Severe acute respiratory syndrome coronavirus 2, UniProt P0DTD1)
rep papain-like protease: Replicase polyprotein 1ab, papain-like protease (rep, Severe acute respiratory syndrome coronavirus 2, UniProt P0DTD1)

COc1cc(Oc2c(O)cc(C)cc2OC)c(C(=O)O)c(C)c1O  inhibition (rep main protease; enzyme activity, inhibitor, FRET; 10 µM): 70.7%
CCOC(=O)CNC(=O)c1ccccc1[Se][Se]c1ccccc1C(=O)NCC(=O)OCC  inhibition (rep main protease; enzyme activity, inhibitor; 40 µM, mean of repeats): 105%
COc1ccc2[nH]cc(CCN/C(=N\C(=O)CSc3nnc(N)s3)Nc3nc(C)cc(C)n3)c2c1  inhibition (rep main protease; enzyme activity, inhibitor; 100 µg/mL): 10.5%
COc1cccc2c1C(=O)C=CC2=O  inhibition (rep main protease; enzyme activity, inhibitor; 1 µM): 90.8%
Nn1cnn2c(SCC(=O)Nc3nnc(SCC(=O)Nc4ccc(S(N)(=O)=O)cc4)s3)nnc12  inhibition (rep main protease; enzyme activity, inhibitor; 100 µg/mL): 12%
COc1cc(-n2[se]c3ccccc3c2=O)ccn1  inhibition (rep main protease; enzyme activity, inhibitor; 0.3 µM): 29.7%
C[C@@H]1C[C@H]2[C@@H](C[C@H]1n1[se]c3ccccc3c1=O)C2(C)C  inhibition (rep main protease; enzyme activity, inhibitor; 40 µM, mean of repeats): 102%
O=C(NC1CCN(c2ncnc3[nH]cnc23)CC1)c1cccc(NS(=O)(=O)c2ccc(C(F)(F)F)cc2)c1  inhibition (Replicase polyprotein 1ab, nsp14 with nsp10 (rep, Severe acute respiratory syndrome coronavirus 2, UniProt P0DTD1); exonuclease activity; SARS-CoV-2; 200 µM): 31.8%
O=C(O)CNC(=O)c1ccccc1[Se][Se]c1ccccc1C(=O)NCC(=O)O  inhibition (rep main protease; enzyme activity, inhibitor; 40 µM, mean of repeats): 101%
CC(=O)N1CSC[C@H]1C(=O)NCC(=O)OCCN1C(=O)CCC1=O  inhibition (rep main protease; enzyme activity, inhibitor; up to 400 µM): no inhibition
COc1c(O[C@@H]2O[C@H](C(=O)O)[C@@H](O)[C@H](O)[C@H]2O)cc(O)c2c(=O)cc(-c3ccccc3)oc12  inhibition (rep main protease; enzyme activity, inhibitor; 50 µM): 8.5%
COC(=O)C(=O)/C(=C\c1ccc(-c2ccccc2[N+](=O)[O-])o1)C(=O)c1ccccc1  inhibition (rep main protease; enzyme activity, inhibitor; 100 µM): 98.1%
COc1ccc(NC(=O)Cn2c(=O)n(CCC(=O)NC3CCCC3)c(=O)c3cc(OC)c(OC)cc32)cc1  inhibition (rep papain-like protease; enzyme activity, inhibitor; 100 µg/mL): 0%
O=c1c2ccccc2[se]n1-c1cccc(F)c1  inhibition (rep main protease; enzyme activity, inhibitor; 0.3 µM): 71.6%
CCCCCCCCCCCCCCCC(=O)N[C@@H](CCC(=O)NCCOCCOCCC(=O)NCCOCCOCCC(=O)NCCCC[C@H](NC(=O)[C@H](CC(=O)O)NC(=O)[C@H](CC(C)C)NC(=O)[C@H](Cc1ccc(O)cc1)NC(=O)[C@H](CCCCN)NC(=O)[C@H](CO)NC(=O)[C@H](Cc1ccc(O)cc1)NC(=O)[C@H](CC(=O)O)NC(=O)[C@H](CO)NC(=O)[C@@H](NC(=O)[C@H](Cc1ccccc1)NC(=O)[C@@H](NC(=O)CNC(=O)[C@H](CCC(N)=O)NC(=O)[C@@H](CO)NC(=O)[C@@H](N)Cc1c[nH]cn1)[C@@H](C)O)[C@@H](C)O)C(=O)N[C@@H](CCCNC(=N)N)C(=O)N[C@@H](CCCNC(=N)N)C(=O)N[C@@H](C)C(=O)N[C@@H](CCC(N)=O)C(=O)N[C@@H](CC(=O)O)C(=O)N[C@@H](Cc1ccccc1)C(=O)N[C@H](C(=O)N[C@@H](CCC(N)=O)C(=O)N[C@@H](Cc1c[nH]c2ccccc12)C(=O)N[C@@H](CC(C)C)C(=O)N[C@@H](CC(C)C)C(=O)N[C@@H](CC(N)=O)C(=O)N[C@H](C(=O)NCC(=O)NCC(=O)N1CCC[C@H]1C(=O)N[C@@H](CO)C(=O)N[C@@H](CO)C(=O)NCC(=O)N[C@@H](C)C(=O)N1CCC[C@H]1C(=O)N1CCC[C@H]1C(=O)N1CCC[C@H]1C(=O)N[C@@H](CO)C(N)=O)[C@@H](C)O)C(C)C)C(=O)O  MRT (rhesus monkey, plasma; intravenous, 15.3 µg/kg, single dose): 40.1 min
Nc1nnc(SC2CC(=O)N(c3cccc4ccccc34)C2=O)s1 (centres unmarked)  inhibition (rep main protease; enzyme activity, inhibitor; 10 µM): 97.6%
O=C(Oc1cncc(Cl)c1)c1cc2ccccc2o1  inhibition (rep main protease; enzyme activity, inhibitor, fluorescence; 10 µM, pH 7.2): 100%
CC(=O)Nc1ccc(S(=O)(=O)NNc2ncnc3sccc23)cc1  inhibition (Replicase polyprotein 1ab, nsp3 macrodomain (rep, Severe acute respiratory syndrome coronavirus 2, UniProt P0DTD1); ADP-ribosylhydrolase activity, inhibitor, gel-based de-MARylation; 10 µM, SARS-CoV-2 Mac1): 23%
CCOC(=O)Cn1[se]c2ccccc2c1=O  inhibition (rep main protease; enzyme activity, inhibitor; 40 µM): 105% and 103%
Cc1c(C(=O)N2c3ccccc3NC(=O)C2CC(=O)Nc2ccc(Cl)c(Cl)c2)oc2ccccc12 (centres unmarked)  inhibition (rep main protease; nsp5 protease activity, luciferase; HEK293T; 10 µM): 7.9 ± 2.7%
CCOC(=O)[C@@H](NC(=O)c1ccccc1[Se][Se]c1ccccc1C(=O)N[C@H](C(=O)OCC)C(C)C)C(C)C  inhibition (rep main protease; enzyme activity, inhibitor; 40 µM, mean of repeats): 87.6%
CC(=O)Nc1ccc(-c2cnc(N3C(=O)C(Cl)C3c3cc4ccccc4nc3Cl)s2)cc1 (centres unmarked)  inhibition (rep papain-like protease; enzyme activity, inhibitor; 100 µM): 100%
CC(C)[C@@H]1CC[C@@H](C)C[C@H]1n1[se]c2ccccc2c1=O  inhibition (rep main protease; enzyme activity, inhibitor; 40 µM, mean of repeats): 102%
O=C(Oc1cncc(Cl)c1)c1cc2ccccc2[nH]1  inhibition (rep main protease; enzyme activity, inhibitor, fluorescence; 10 µM, pH 7.2): 100%
c1ccc(C[Se][Se]Cc2ccccc2)cc1  inhibition (rep main protease; enzyme activity, inhibitor; 40 µM, mean of repeats): 75.1%
Cc1cc(-n2[se]c3ccccc3c2=O)ccn1  inhibition (rep main protease; enzyme activity, inhibitor; 0.3 µM): 59.2%

Excerpt of the above:
CC(=O)N1CSC[C@H]1C(=O)NCC(=O)OCCN1C(=O)CCC1=O  inhibition (rep main protease; enzyme activity, inhibitor; up to 400 µM): no inhibition
COc1ccc(NC(=O)Cn2c(=O)n(CCC(=O)NC3CCCC3)c(=O)c3cc(OC)c(OC)cc32)cc1  inhibition (rep papain-like protease; enzyme activity, inhibitor; 100 µg/mL): 0%
COc1ccc2[nH]cc(CCN/C(=N\C(=O)CSc3nnc(N)s3)Nc3nc(C)cc(C)n3)c2c1  inhibition (rep main protease; enzyme activity, inhibitor; 100 µg/mL): 10.5%
CCCCCCCCCCCCCCCC(=O)N[C@@H](CCC(=O)NCCOCCOCCC(=O)NCCOCCOCCC(=O)NCCCC[C@H](NC(=O)[C@H](CC(=O)O)NC(=O)[C@H](CC(C)C)NC(=O)[C@H](Cc1ccc(O)cc1)NC(=O)[C@H](CCCCN)NC(=O)[C@H](CO)NC(=O)[C@H](Cc1ccc(O)cc1)NC(=O)[C@H](CC(=O)O)NC(=O)[C@H](CO)NC(=O)[C@@H](NC(=O)[C@H](Cc1ccccc1)NC(=O)[C@@H](NC(=O)CNC(=O)[C@H](CCC(N)=O)NC(=O)[C@@H](CO)NC(=O)[C@@H](N)Cc1c[nH]cn1)[C@@H](C)O)[C@@H](C)O)C(=O)N[C@@H](CCCNC(=N)N)C(=O)N[C@@H](CCCNC(=N)N)C(=O)N[C@@H](C)C(=O)N[C@@H](CCC(N)=O)C(=O)N[C@@H](CC(=O)O)C(=O)N[C@@H](Cc1ccccc1)C(=O)N[C@H](C(=O)N[C@@H](CCC(N)=O)C(=O)N[C@@H](Cc1c[nH]c2ccccc12)C(=O)N[C@@H](CC(C)C)C(=O)N[C@@H](CC(C)C)C(=O)N[C@@H](CC(N)=O)C(=O)N[C@H](C(=O)NCC(=O)NCC(=O)N1CCC[C@H]1C(=O)N[C@@H](CO)C(=O)N[C@@H](CO)C(=O)NCC(=O)N[C@@H](C)C(=O)N1CCC[C@H]1C(=O)N1CCC[C@H]1C(=O)N1CCC[C@H]1C(=O)N[C@@H](CO)C(N)=O)[C@@H](C)O)C(C)C)C(=O)O  MRT (rhesus monkey, plasma; intravenous, 15.3 µg/kg, single dose): 40.1 min
